# Measured values pooled from the literature.
# Protein sequences, listed by entry. Tags and fused reporters are not part of them.
# UniProt P55210, whole entry, looked up: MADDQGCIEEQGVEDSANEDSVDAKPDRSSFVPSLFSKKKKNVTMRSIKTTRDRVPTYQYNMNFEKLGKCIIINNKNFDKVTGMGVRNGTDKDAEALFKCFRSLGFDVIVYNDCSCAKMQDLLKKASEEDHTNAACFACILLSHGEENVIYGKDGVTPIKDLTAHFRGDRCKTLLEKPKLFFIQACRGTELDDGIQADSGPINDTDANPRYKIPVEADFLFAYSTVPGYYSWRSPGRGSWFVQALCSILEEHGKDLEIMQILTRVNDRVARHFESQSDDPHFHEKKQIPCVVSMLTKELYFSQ
# UniProt P42574, whole entry, looked up: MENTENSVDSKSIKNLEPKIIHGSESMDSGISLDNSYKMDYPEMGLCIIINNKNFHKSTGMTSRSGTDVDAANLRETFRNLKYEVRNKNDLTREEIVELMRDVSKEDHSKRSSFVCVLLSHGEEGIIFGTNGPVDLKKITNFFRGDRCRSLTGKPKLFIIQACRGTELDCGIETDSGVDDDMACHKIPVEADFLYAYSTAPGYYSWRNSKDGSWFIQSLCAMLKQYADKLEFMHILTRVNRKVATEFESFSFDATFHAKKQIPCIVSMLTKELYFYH
# A part holds a random share of what one study measured. Numbers after ± are the reported error.

# Block 1
# SMILES: N#Cc1c(-c2ccc(Cl)cc2Cl)n(-c2nc(-c3ccc(Cl)cc3)c3c(NC(=O)c4ccccc4)nnc-3[nH]2)[nH]c1=O
cell line,assay,conditions,CC50 [µM]
KM12,SRB,,> 100
NCI-H522,SRB,,> 100
HCT-15,SRB,,> 100
786-0,SRB,5-dose,> 100
CCRF-CEM,NCI60 SRB,5 log dose range,> 100
COLO 205,SRB,,> 100
NCI-H322M,SRB,,> 100
NCI-H226,SRB,,> 100

# Further values, each from its own experiment
Compound,target or system,assay,system,conditions,how to read,endpoint,result
O=C(CSc1nccn1C1CCCCC1)Nc1cc(C(F)(F)F)ccc1Cl,Plasmodium falciparum,"parasite growth, SYBR Green",3D7 DHODH E182D,72 h,,EC50,1.44 ± 0.39 µM
Cc1ccc2[nH]cc(CNCC3(N4CCCC4)COC3)c2c1,GBM6,,,"30 µM, 48 h",relative to: DMSO,viability,101%
O=C(Nc1cccc(C2=NCCN2)c1)c1ccc(-c2ccc(C(=O)Nc3cccc(C4=NCCN4)c3)cc2)cc1,Trypanosoma brucei brucei,resazurin,"Lister 427, bloodstream form",3 d,,EC50,0.0077 µM
Fc1ccc2[nH]cc(CNCC3(N4CCCC4)COC3)c2c1,HEK,single-dose screen,,"30 µM, 48 h, off-target toxicity",relative to: DMSO control,viability,100%
Cc1nn(-c2ccc(Cl)cc2)c2c1C(c1cc(Cl)ccc1Cl)C(C#N)=C(N)O2 (stereo not shown),Vero E6,MTT,,25 µM,,viability,64.2%
CC(C)[C@H](NC(=O)CNC(=O)[C@H](COP(=O)(O)O)NC(=O)[C@@H](NC(=O)[C@H](CCC(=O)O)NC(=O)[C@H](CC(=O)O)NC(=O)CCNC(=O)Cc1cc(=O)oc2cc(N)ccc12)C(C)C)C(=O)N[C@@H](CCCCNc1ccc([N+](=O)[O-])cc1[N+](=O)[O-])C(=O)N[C@@H](CC(=O)O)C(N)=O,"Caspase-7 (CASP7, Homo sapiens, UniProt P55210)",substrate,,pH 7.2,,Km,12.2 µM
COc1cc(C2C(C#N)=C(N)Oc3c2c(C)nn3-c2ccc(Cl)cc2)ccc1O (stereo not shown),Vero E6,MTT,,25 µM,,viability,54.4%
CC[C@H](C)[C@H](NC(=O)[C@@H](NC(=O)[C@H](CC(=O)O)NC(=O)CNC(=O)[C@@H](NC(=O)[C@H](CC(=O)O)NC(=O)[C@H](CCSC)NC(=O)[C@H](CCC(=O)O)NC(=O)[C@H](CC(=O)O)NC(=O)[C@@H](NC(=O)CCNC(=O)Cc1cc(=O)oc2cc(N)ccc12)C(C)C)[C@@H](C)OP(=O)(O)O)[C@@H](C)O)C(=O)N[C@@H](CCCCNc1ccc([N+](=O)[O-])cc1[N+](=O)[O-])C(N)=O,"Caspase-3 (CASP3, Homo sapiens, UniProt P42574)",substrate,,pH 7.2,,Km,17.6 µM

# Excerpt of the above (further values, each from its own experiment):
Compound,target or system,assay,system,conditions,how to read,endpoint,result
O=C(CSc1nccn1C1CCCCC1)Nc1cc(C(F)(F)F)ccc1Cl,Plasmodium falciparum,"parasite growth, SYBR Green",3D7 DHODH E182D,72 h,,EC50,1.44 ± 0.39 µM
COc1cc(C2C(C#N)=C(N)Oc3c2c(C)nn3-c2ccc(Cl)cc2)ccc1O (stereo not shown),Vero E6,MTT,,25 µM,,viability,54.4%
